Results from different studies.
Compare with care: the assays were run in different laboratories. ± marks the error that the study gave.

For `COc1ccccc1OCCNCC(O)COc1cccc2[nH]c3ccccc3c12` (stereo not drawn), “precipitation induction time” read ≤ 10 min (buffer without mucin; supersaturation ratio 5).
`CC(C)c1nc(N(C)S(C)(=O)=O)nc(-c2ccc(F)cc2)c1/C=C/[C@@H](O)C[C@@H](O)CC(=O)O` gave an AUC0-last ratio of 280% (healthy human volunteers, plasma; oral, dose not given, BCRP probe substrate, with: momelotinib; baseline: compound alone).
`Cc1nc2cccc(OCC(C)(C)C(=O)NC(C)C)c2c(N)c1C(=O)O`: “micronucleated PCE per 14000 PCE” 7 (male Swiss albino CD-1 mouse, bone marrow; oral, 1000 mg/kg, 24 h).
The Kd of `O=C(Nc1ccc(S(=O)(=O)Nc2ncccn2)cc1)c1c(Cl)cccc1Cl` is reported as > 100 µM (Cyclin-dependent kinase 2 (CDK2, Homo sapiens, UniProt P24941); binding).
Under “patients with increased INR”, `COc1cc(Nc2ncc3c(n2)-c2ccc(Cl)cc2C(c2c(F)cccc2OC)=NC3)ccc1C(=O)O` is recorded as 13% (cancer patients; oral, dose not given, grade 1 any attribution, with: pembrolizumab).
`CCO[C@H]1CCN(Cc2c(OC)cc(C)c3[nH]ccc23)[C@H](c2ccc(C(=O)O)cc2)C1` — result for “incidence free thyroxine increase”: 14.3% (PNH patients, active haemolysis; oral, 100 mg, treatment).
Under “mean platelet volume”, `CCc1cc(C(=O)NC)c2nccc(N3CCc4c(cc(Cn5ccnc5)cc4-c4cn(C)nc4C(F)(F)F)C3=O)c2c1` is recorded as 7.85 ± 0.26 fL (Sprague Dawley rats; oral, 100 mg/kg twice daily, 7 days).
The oral bioavailability of `O=C(COc1ccc(N2C(=O)[C@@H]3[C@@H]4C=C[C@@H]([C@H]5C[C@@H]45)[C@@H]3C2=O)cc1)c1cc(Cl)cc(Cl)c1` is reported as 39% (CD-1 mice, female; oral, 20 mg/kg, iv 5 mg/kg reference).
`CCn1cc(C(=O)N2CCOCC2)c(=O)c2cc(NC3Cc4ccccc4C3)cnc21` has a Cmax of 6920 ng/mL (human female, fed, plasma; oral, 900 mg twice daily, day 7, tablet, arithmetic mean).
The ECG observations of `CCOc1c([C@H](C)n2nc(C)c3c(N)ncnc32)cc(Cl)c(F)c1[C@@H]1CNC(=O)C1` is reported as 60% (item: QTcF change ≤30 ms; previously treated B-cell malignancy; oral, 5 mg once daily, baseline QTcF ≤450 ms; baseline: baseline).
The radiochemical purity of `C[C@@H](O)[C@@H](CO)NC(=O)[C@@H](CCCNC(=N)N)NC(=O)[C@@H]1CCCN1C(=O)[C@@H]1CSSC[C@H](NC(=O)[C@H](Cc2ccccc2)NC(=O)CN2CCN(CC(=O)O)CCN(CC(=O)O)CCN(CC(=O)O)CC2)C(=O)N[C@@H](Cc2ccc(O)cc2)C(=O)N[C@@H](Cc2ccccc2)C(=O)N[C@@H](CCC(N)=O)C(=O)N[C@@H](CC(N)=O)C(=O)N1` [gallium-68 labelled] is reported as > 99% (normal saline; 0 h, room temperature).
`Cc1ccc(Sc2ccccc2N2CCNCC2)c(C)c1`: “participants with TEAE” 16.7% (item: protein in urine; healthy adult men; oral, 5 mg daily, 12 days).
The plasma concentration of `Cn1cc([C@H]2C[C@H]3CSC(N)=N[C@@]3(c3ccc(F)cc3F)CO2)cn1` is reported as 3.31 µM (male 129/SVE mouse, plasma; subcutaneous, 50 mg/kg, 9 h).
The faecal excretion of `C[C@@H](Oc1ccc(S(C)(=O)=O)cc1C(=O)N1C[C@@H]2C[C@]2(c2cc(C(F)(F)F)on2)C1)C(F)(F)F` is reported as 48.3% (item: 14C radioactivity; human, faeces; oral, 25 mg, 0 to 677 h, geometric mean; baseline: dose).
`CCN1/C(=C/C(C)=O)Sc2ccc(F)cc21` — result for “QTc interval change”: 99.8 ± 2.9% (cynomolgus monkey; oral, 10 mg/kg, 1 h post-dose; baseline: pre-dose).
`Nc1nnc(-c2cccc(Cl)c2Cl)c(N)n1`: “QRS interval decrease” 5.58 ms (human, plasma; 15 µg/mL, outliers excluded; baseline: baseline).
For `NC(=O)N1c2ccccc2C=Cc2ccccc21`, “adverse events incidence” read 13% (item: musculoskeletal disorders (SOC); human male; oral, dose not given, CTCAE on-treatment AEs).
With `Cc1cccc(CNC(=O)c2cn(CCNC(=O)c3ccccc3S)c3cc4c(cc3c2=O)OC(F)(F)O4)n1` the half-life was 0.84 ± 0.41 h (Sprague-Dawley rat, male, plasma; intravenous, 5 mg/kg of parent drug).
Under “adverse event incidence”, `FC(F)(F)c1ccc(CNc2ccc(Cc3c[nH]c4ncc(Cl)cc34)cn2)cn1` is recorded as 44% (item: Fatigue; patients with advanced solid tumours; oral, dose not given, grade 1 and 2, possibly related to drug).
For `Cc1cc(-c2nccc3c2ccn3CC(=O)Nc2ccc(-c3cnccn3)cn2)ccn1`, “nervous system TEAEs” read 0% (healthy human volunteers; oral, 7 mg single dose, single ascending dose).
The tissue uptake of `COc1cccc(OC)c1-c1cc(C(=O)NC2(C(=O)O)C3CC4CC(C3)CC2C4)nn1-c1ccc(C(=O)N(C)CCCN(C)CCCN(C)C(=O)CN2CCN(CC(=O)[O-])CCN(CC(=O)[O-])CCN(CC(=O)[O-])CC2)cc1C(C)C.[177Lu+3]` (stereo not drawn) is reported as 0.15 %ID/g (mouse, HT-29 xenograft, spleen; 72 h post injection).
For `CN(C(=O)C(C)(C)c1cc(C(F)(F)F)cc(C(F)(F)F)c1)c1cnc(N2C[C@H]3COCCN3C[C@H]2CO)cc1-c1ccc(F)cc1[14CH3]`, the radioactivity excreted was 90.4% (healthy men, feces including toilet tissue; oral, 120 mg, 480 h; baseline: dose).
`C[C@H](CCC(=O)NCC(=O)O)[C@H]1CC[C@H]2[C@@H]3[C@H](O)C[C@@H]4C[C@H](O[C@@H]5O[C@H](C(=O)O)[C@@H](O)[C@H](O)[C@H]5O)CC[C@]4(C)[C@H]3CC[C@]12C`: “relative peak deviation” 129 ± 21% (human, plasma; endogenous control diurnal; baseline: daily mean concentration).
Under “subjects with adverse event”, `CC(C)n1c(Nc2cccnc2)nc2cnc(Nc3ccc(N4CCN(C)CC4)cc3)nc21` is recorded as 57.1% (item: at least one TEAE; healthy male subjects; oral, 150 mg, study, with: rifampin).
For `CNCc1ccc(-c2[nH]c3cc(F)cc4c3c2CCNC4=O)cc1`, “AST/ALT increased incidence” read 0% (human patients; oral, 600 mg twice daily, grade 5).
For `CS(=O)(=O)c1ccc([C@@H](O)[C@@H](CF)NC(=O)C(Cl)Cl)cc1`, the terminal half-life was 2.07 ± 0.58 h (Arbor Acres chickens, plasma; oral, 20 mg/kg, with: quercetin 60 mg/kg pretreatment).
With `CC(C)Oc1c(NC(=O)c2ccc(NC(=O)[C@H](CC(N)=O)NC(=O)c3ccc(NC(=O)c4ccc(C#N)cc4)cc3)cc2)ccc(C(=O)N/N=C/c2ccc(C(=O)O)cc2)c1O` the thermal half-life was 19.6 h (absorbance; DMSO; 30 °C, PSS to ground state relaxation).
With `C/C(=N\c1ccc(O)cc1)c1cc2ccccc2n1C` the remaining compound was 101 ± 5.8% (rat plasma; 1000 ng/mL, time not given, 3 freeze-thaw cycles; baseline: nominal).
With `CO[C@H]1C[C@@H]2CC[C@@H](C)[C@@](O)(O2)C(=O)C(=O)N2CCCC[C@H]2C(=O)O[C@H]([C@H](C)C[C@@H]2CC[C@@H](O)[C@H](OC)C2)CC(=O)[C@H](C)/C=C(\C)[C@@H](O)[C@@H](OC)C(=O)[C@H](C)C[C@H](C)/C=C/C=C/C=C/1C` the heart rate was 31 ± 4.8 beats/min (healthy adult horses; oral, 0.06 mg/kg, 1 h).
For `CC(=O)N(C)[C@H]1CCN(C(=O)c2cnc3c(c2)C[C@](C)(c2ccc(F)cc2)N3)C1`, “lens nucleus opacity diameter” read < 1 mm (human, left eye; oral, 15 mg).
Under “geometric mean Cmax”, `COc1ncc(-c2nc3c(n2C(C)C)[C@H](c2ccc(Cl)cc2)N(c2cc(Cl)cn(C)c2=O)C3=O)c(OC)n1` is recorded as 7.9 ng/mL (human patients, plasma; oral, 1 mg, cycle 1 day 1, low-dose).
`CCc1nc(C(N)=O)c(Nc2ccc(N3CCC(N4CCN(C)CC4)CC3)c(OC)c2)nc1NC1CCOCC1` has a Cmax of 31.2 ng/mL (Japanese patients, plasma; oral, 40 mg, cycle 0 day -2, single dose, median).
Under “pseudo-first-order rate constant”, `C#Cc1ccc(C(F)(F)F)cc1C=O` is recorded as 3 h⁻¹ (reaction with N-acetyl-lysine, HPLC-MS; pH 10.2, with: N-α-acetyl-lysine).
`CNC(=O)c1ccc(-c2cnc3ncc(Cc4ccc5ncccc5c4)n3n2)cc1F` has an AUC(0-t) of 7970 ng·h/mL (human moderate hepatic impairment NCI; oral, 200 mg single dose, mean).
`COc1ccc([C@@H](O)c2cc(-c3ncnc4cc(N5CCOCC5)ccc34)c(F)cc2Cl)nn1` — result for “patients with fatigue”: 67% (locally advanced rectal cancer patients; 100 mg, drug-related adverse events, with: capecitabine and radiotherapy).
`COc1ccc2[nH]cc(CCNC(=O)Nc3ccc(Cl)c(Cl)c3)c2c1` gave a Kd of > 100 µM (Cyclin-dependent kinase 2, with cyclin A (CDK2, Homo sapiens, UniProt P24941)).
Under “treatment-emergent adverse events”, `O=C(Nc1nc2cccc(-c3ccc(CN4CCS(=O)(=O)CC4)cc3)n2n1)C1CC1` is recorded as 4.5% (item: cardiac disorders; human rheumatoid arthritis patients; oral, 75 mg once daily, 4 weeks, regardless of relatedness).
For `CN[C@H](CC(C)C)C(=O)N[C@H]1C(=O)N[C@@H](CC(N)=O)C(=O)N[C@H]2C(=O)N[C@H]3C(=O)N[C@H](C(=O)N[C@H](C(=O)O)c4cc(O)cc(O)c4-c4cc3ccc4O)[C@H](O)c3ccc(c(Cl)c3)Oc3cc2cc(c3O[C@@H]2O[C@H](CO)[C@@H](O)[C@H](O)[C@H]2O[C@H]2C[C@](C)(N)[C@H](O)[C@H](C)O2)Oc2ccc(cc2Cl)[C@H]1O`, dose-normalised Cmax read “no effect” (Welch's t-test; C57BL/6N mice, faeces; oral, 1 vs 20 mg/mL; baseline: high dose over low dose).
With `COc1cc(/C=C/C(=O)CC(=O)/C=C/c2ccc(O)c(OC)c2)ccc1O` the hemolysis was 0.53% (red blood cells; concentration not given; baseline: Triton X-100).
For `C=CC(=O)Nc1cc(Nc2nccc(-c3cn(C)c4ccccc34)n2)c(OC)cc1N(C)CCN(C)C`, the recovery was 73.4% (storage stability; human dried blood spots; 24 h, on ice, low QC level).
Under “incidence of decreased appetite”, `NC1(C(=O)N[C@@H](CCO)c2ccc(Cl)cc2)CCN(c2nc[nH]c3nccc2-3)CC1` is recorded as 0% (metastatic CRPC patients; 480 mg b.i.d., grade 3 to 4, treatment-related, with: enzalutamide 160 mg daily).
For `Cn1cc(-c2ccc(-c3cncc(Cl)c3N3CCC4(CCNC4=O)CC3)cc2)cn1`, “log2 fold change” read 1.85 (COLO 205; gene expression, microarray, item: MDM2 mRNA; concentration not given, 2 h; baseline: untreated cells).
`CC(C)(C)c1ccc(O)c(CN(Cc2cc(C(C)(C)C)ccc2O)C2CCC(NC(N)=O)CC2)c1` (stereo not drawn) gave a dose-normalised Cmax of 125 ng/g per mg/kg (C57BL/6 mice, male, brain; intraperitoneal, 5 mg/kg, single dose).
`O=C(O)CCCCCCCCCCCCC(=O)O`: “relative peak deviation” 69.4 ± 8.1% (human, plasma; endogenous baseline diurnal; baseline: daily mean concentration).
`Cn1cc(Nc2nccc(-c3ccc4c(c3)CN(C3COC3)CC[C@H]4NC(=O)c3cn(C(C)(C)C)nn3)n2)cn1` — result for “transitional B cell count change”: -25.4% (human, whole blood; 150 mg twice daily, day 14; baseline: pre-dose baseline).

Excerpt of the above:
`Cc1ccc(Sc2ccccc2N2CCNCC2)c(C)c1`: “participants with TEAE” 16.7% (item: protein in urine; healthy adult men; oral, 5 mg daily, 12 days).
The plasma concentration of `Cn1cc([C@H]2C[C@H]3CSC(N)=N[C@@]3(c3ccc(F)cc3F)CO2)cn1` is reported as 3.31 µM (male 129/SVE mouse, plasma; subcutaneous, 50 mg/kg, 9 h).
The faecal excretion of `C[C@@H](Oc1ccc(S(C)(=O)=O)cc1C(=O)N1C[C@@H]2C[C@]2(c2cc(C(F)(F)F)on2)C1)C(F)(F)F` is reported as 48.3% (item: 14C radioactivity; human, faeces; oral, 25 mg, 0 to 677 h, geometric mean; baseline: dose).
`CCN1/C(=C/C(C)=O)Sc2ccc(F)cc21` — result for “QTc interval change”: 99.8 ± 2.9% (cynomolgus monkey; oral, 10 mg/kg, 1 h post-dose; baseline: pre-dose).
`Nc1nnc(-c2cccc(Cl)c2Cl)c(N)n1`: “QRS interval decrease” 5.58 ms (human, plasma; 15 µg/mL, outliers excluded; baseline: baseline).
For `NC(=O)N1c2ccccc2C=Cc2ccccc21`, “adverse events incidence” read 13% (item: musculoskeletal disorders (SOC); human male; oral, dose not given, CTCAE on-treatment AEs).
With `Cc1cccc(CNC(=O)c2cn(CCNC(=O)c3ccccc3S)c3cc4c(cc3c2=O)OC(F)(F)O4)n1` the half-life was 0.84 ± 0.41 h (Sprague-Dawley rat, male, plasma; intravenous, 5 mg/kg of parent drug).
Under “adverse event incidence”, `FC(F)(F)c1ccc(CNc2ccc(Cc3c[nH]c4ncc(Cl)cc34)cn2)cn1` is recorded as 44% (item: Fatigue; patients with advanced solid tumours; oral, dose not given, grade 1 and 2, possibly related to drug).
